Measurements of several laboratories.
Numbered parts are unrelated; each lists some results of a single study.

Block 1
Target: Sal-like protein 4, full length isoform B (SALL4, Homo sapiens, UniProt Q9UJQ4-2, residues 1-616)
Method: universal PBM
Form: double-stranded DNA, one strand shown
Matrix: in vitro
Concentration: not given
Setting: 8-mer, flanks averaged, mean of replicates
Direction: higher = stronger binding
Oligonucleotide	E-score
GAAGAATC	-0.128
CGTGTCTC	0.00716
AAGCTGAT	-0.0757
CGAATTGA	-0.0613
CCCTACTA	-0.0906
ATACATCG	0.133
CGCTCCGA	-0.211
ACAAGCCC	-0.205
CGTTTGAG	-0.0759
AGAGAGTA	-0.00141
CCAGGAAA	0.00157
CAAGCTAG	-0.11
CCTCAGTC	-0.218
CCTTATGA	0.127
CTAGCGAC	-0.0675
CTGGTAGC	-0.211
AACGATCT	-0.00057
AGAAGGGC	-0.287
CCTGTCAG	-0.162
GCCGAGCC	-0.216

Block 2
Target: Ras GTPase-activating protein-binding protein 1, full length (G3BP1, Homo sapiens, UniProt Q13283)
Chain of UniProt Q13283 (whole entry, looked up): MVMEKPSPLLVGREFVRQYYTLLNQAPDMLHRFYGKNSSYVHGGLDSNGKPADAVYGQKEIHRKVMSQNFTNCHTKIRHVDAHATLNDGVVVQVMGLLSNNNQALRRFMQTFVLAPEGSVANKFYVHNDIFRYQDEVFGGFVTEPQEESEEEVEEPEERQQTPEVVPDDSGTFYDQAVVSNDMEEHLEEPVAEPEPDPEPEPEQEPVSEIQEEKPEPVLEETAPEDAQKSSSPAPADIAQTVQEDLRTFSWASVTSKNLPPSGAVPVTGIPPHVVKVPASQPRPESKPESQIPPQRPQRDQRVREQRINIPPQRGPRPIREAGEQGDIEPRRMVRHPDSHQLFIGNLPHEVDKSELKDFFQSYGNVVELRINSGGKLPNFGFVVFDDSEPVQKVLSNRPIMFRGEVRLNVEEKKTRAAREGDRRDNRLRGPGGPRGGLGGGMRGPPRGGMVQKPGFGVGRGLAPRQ
Method: RNA Bind-n-Seq
Form: RNA
Matrix: in vitro
Concentration: 200 nM
Setting: whole 134-nt RNA, ends assumed
Added: 150 mM KCl
Relative to: input library
Direction: higher = stronger binding
Oligonucleotide	log2 enrichment
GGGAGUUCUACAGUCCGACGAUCUAACUUUAGAGGAGGAUCUGAUGGAUAUGGCAGUGGACGUGGAUUUGCGGAUGGCUAUAAUGGGUAUGGAGGAGGACCUGGAGGUGGCAAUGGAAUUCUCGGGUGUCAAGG	0.304
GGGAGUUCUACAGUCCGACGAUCUAACUUUAGAGGAGGAUCUGAUGGAUAUGGCAGAGGACGUGGAUUUGGGGAUGGCUAUAAUGGGUAUGGAGGAGGACCUGGAGGUGGCAAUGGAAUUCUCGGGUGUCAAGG	0.426
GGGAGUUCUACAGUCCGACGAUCCUCAAGUCCUGUGCUACACAUCGUAUGUACCGAAUCGGGAGGGUUUGGGUGGGAAAGUAUUAUGUUACGCCGUUCGGAUCUGCACUUCCAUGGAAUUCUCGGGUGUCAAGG	1.23
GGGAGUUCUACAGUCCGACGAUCUAACUUUAGAGGAGGAUCUGAUGGAUAUGGCAGUGGACGUGGAUUUGGGGAUGGCUAUAAUGGGUAUGGAGGAGCACCUGGAGGUGGCAAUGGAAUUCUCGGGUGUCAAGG	-0.0387
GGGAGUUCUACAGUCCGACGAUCUUUCUGCAGCAUUAGAGAAGGCCCAAGAAGAAGCCCGUCAGCAGCAAGAAACAUUAGCCAUUCAAGUAAGCAAUGGAUGAUGAAUUAGAGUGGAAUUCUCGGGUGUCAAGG	-1.2
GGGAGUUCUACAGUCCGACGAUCCAAGUCCUGUGCUACACAUCGUAUGUACCGAAUCGGGUUUGGGGUUUGGUUUGGGGAAAGUAUUAUGUUACGCCGUUCGGAUCUGCACUUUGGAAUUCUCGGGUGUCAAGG	0.108
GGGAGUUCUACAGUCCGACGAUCUCAUCCUUUUUAAAUUUUUUUUUUUUUUUUGAGACGGUCUCACUCUCACCCAGGCUGGAUUGCAGUGGUGUGAUCUCGACCAACUGCAACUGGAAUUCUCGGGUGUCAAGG	-0.165
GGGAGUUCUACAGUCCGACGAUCCAAGUCCUGUGCUACACAUCGUAUGUACCGAAUCGGGAAAGGGAGGGUUUUUGGGAAAGUAUUAUGUUACGCCGUUCGGAUCUGCACUUCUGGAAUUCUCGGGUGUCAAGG	0.539
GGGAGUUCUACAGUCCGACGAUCCCUGUGCUACACAUCGUAUGUACCGAAUCGGGCCCCCCCGGGCCCCCCCGGCCCCCCCGGAAAGUAUUAUGUUACGCCGUUCGGAUCUGCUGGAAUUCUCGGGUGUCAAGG	0.00849

Block 3
Target: Interferon regulatory factor 7, full length, phosphomimetic (IRF7, Homo sapiens, UniProt Q92985, residues 1-503, S101K/S471D/S472D/S475D/S476D/S477D/S483D/S484D/S487D)
Method: protein-binding microarray
Form: double-stranded DNA, one strand shown
Matrix: in vitro
Concentration: 250 nM
Setting: 60-bp whole probe
Added: salmon DNA 0.4 mg/ml
Relative to: random background probes
Direction: higher = stronger binding
Constant ends, left off below: GCCTAGCAC … GTCTTGATTCGCTTGACGCTGCTG
Residues (chain): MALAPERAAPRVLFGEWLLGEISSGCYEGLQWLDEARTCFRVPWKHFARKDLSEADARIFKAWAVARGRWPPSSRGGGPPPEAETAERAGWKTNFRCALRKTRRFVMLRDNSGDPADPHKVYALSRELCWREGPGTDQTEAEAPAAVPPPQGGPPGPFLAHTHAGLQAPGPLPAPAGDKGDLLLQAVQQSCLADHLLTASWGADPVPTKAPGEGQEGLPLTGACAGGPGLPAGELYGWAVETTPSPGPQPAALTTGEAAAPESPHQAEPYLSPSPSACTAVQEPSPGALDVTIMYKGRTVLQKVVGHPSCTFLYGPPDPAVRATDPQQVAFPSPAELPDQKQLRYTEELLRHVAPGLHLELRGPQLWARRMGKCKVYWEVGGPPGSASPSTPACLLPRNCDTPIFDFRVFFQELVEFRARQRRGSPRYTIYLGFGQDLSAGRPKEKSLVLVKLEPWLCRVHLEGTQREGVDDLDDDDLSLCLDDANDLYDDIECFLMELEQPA
Oligonucleotide	log fluorescence [z-score]
GCTTTCCCCTTGGACTCTTTGTGCTAG	4.02
ATTCTCTTCTTGCATCTGGGTGTGCTA	1.7
GACGGTTTCCTTTGCCTGACGTGCTAG	2.37
GACGGTATCGGGTTCCGGGACGTGCTA	1.77
GATGTTTTTCATTTTTTTTCGTGCTAG	0.742
TTAGGTCTCGGGATCGGTTAGTGCTAG	1.62
TAAGAACTGGGGTTTCGATTAGTGCTA	6.3
GATGATTTCAGACTGGAGACGTGCTAG	-0.233
TCATTTTTGTTGTTTTTACTGTGCTAG	1.04
TTAGATATCGGGTTTGGATTAGTGCTA	0.123
GACGCTCTCGGACTGGGGACGTGCTAG	-0.139
TCAGTGCTCATGCTTCTTACTGTGCTA	-0.579
TCAATTGTGCAATCTTAAACTGTGCTA	0.149
GACGAGTTCAGTCTCGAGACGTGCTAG	0.582
GATGGTTTCGGTCTCGGGACGTGCTAG	8.55
CCATTCTTGGGACTCACCTGGTGCTAG	1.35

Block 4
Target: Histone acetyltransferase KAT6A, winged helix 2, GST fusion (KAT6A, Homo sapiens, UniProt Q92794, residues 85-181)
Method: protein binding microarray
Form: double-stranded DNA, one strand shown
Matrix: in vitro
Concentration: not given
Setting: 8-mer, flanks averaged, mean of 2 arrays, mostly near background
Relative to: not given
Direction: higher = stronger binding
Residues (chain): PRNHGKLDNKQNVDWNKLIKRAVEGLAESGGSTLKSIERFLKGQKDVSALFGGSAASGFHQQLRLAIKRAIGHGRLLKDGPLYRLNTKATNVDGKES
Oligonucleotide	E-score
CCGCCTAA	0.145
ATCAGTCG	0.0759
ACTGCTTA	-0.0118
TGTCTTAA	0.0246
ACGGAACA	-0.0387
GATGTGGA	-0.0408
CAGGACGG	0.0962
AAGTCCTG	-0.0172
CTCATTGC	0.0136
ATTTTAGA	-0.142
ACCATCCC	-0.0229
CTTCTCTA	-0.0186
AGCGAATA	0.00131
AAGGGTAA	-0.0159
CCAGGATA	-0.0158
CGCATTAA	0.0983
GTACGTTA	-0.165

Block 5
Target: RNA binding protein fox-1 homolog 2, RRM domain, GST-SBP tag (RBFOX2, Homo sapiens, UniProt O43251-10, residues 100-194)
Method: RNA Bind-n-Seq
Form: RNA
Matrix: in vitro
Concentration: 365 nM
Setting: natural RNA segment, single round, ends assumed
Relative to: no-protein control
Direction: higher = stronger binding
Construct (chain): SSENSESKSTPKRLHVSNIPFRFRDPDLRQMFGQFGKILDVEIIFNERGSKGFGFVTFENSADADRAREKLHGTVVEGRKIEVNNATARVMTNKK
Oligonucleotide	RBNS enrichment (R)
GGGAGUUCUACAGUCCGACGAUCUUUAUUACAUUGAAGAAACUAAAACAUAAAUGAAAAGAAACACUAGGUUCCUGCACUUUUUGGUAACUUUAUGUCUAGCAAAUAUUUUAUGCCAAGAAAAGCAUACUAUAUGGAAUUCUCGGGUGCCAA	0.521
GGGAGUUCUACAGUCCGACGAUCAGAAAAAGUAGGUUUGCUGAAAAACAUUACUAAAUGACUUGGAGCUCUCCAGUCAAAGAAACAAAGCUAAUUGAAAUAAUGUACAUUUGGUUCAGUCUGUCAGGCAAGUAUGGAAUUCUCGGGUGCCAA	0.71
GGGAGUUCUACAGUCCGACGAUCCCCAGUUGAUAACAGUGUUUGAUUAAAUUUCCACUCAAGCCAAACAUGGUUACUAAGAAGAGAAAAACCUGAUGUUUGCAUAAUAUUUUUUUUCCCCUCGAGAUGGAGUCUGGAAUUCUCGGGUGCCAA	0.978
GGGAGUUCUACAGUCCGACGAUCAAGAGGGGCCCAGUAUCAGUUUGUUGAAUUUGUCAAAUCUUUUCCUGGACAUAAAUGAGACUAUUGAAGGAAGUAACGUCCCACCGUCGUGAUGCUGUGUGAGAAGAUGGUGGAAUUCUCGGGUGCCAA	3.59
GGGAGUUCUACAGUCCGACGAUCCUGCUAGGCUGACGACUAAGCUGCUGGCCCUGCAGAGGGUCCAGUGUACACUCCACUCUGCUACAGCAGCAUGGUGAGGACCCACCACAGGAGCUGUGCUCCUCAGAGGGUGGAAUUCUCGGGUGCCAA	0.202
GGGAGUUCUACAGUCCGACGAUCCUUAACUCAGUAAAGAUGGAAGUGGUAAAGAAACCAAGUAGACAGUAGGGGCUCUUGAGAGUAUUGAAAGGCAGUGCUGCCUUUAUGCAGGAAGGUAUAAACCGGUUAUGUGGAAUUCUCGGGUGCCAA	0.899
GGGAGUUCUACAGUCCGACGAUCGUUUGCCAUUGCAAGCAUAGUGCUGUGUCAUCCUGGUCCAUGUAGGACUGGUGCUAACCACCUGCCAUCAUGAGGAUGUGUGCUAGAGUGUGGGACCCUGGCCAAGUGCAUGGAAUUCUCGGGUGCCAA	3.63
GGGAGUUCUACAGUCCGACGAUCAAUCUCAAAAGUUAAGCUGAAUUUCACACCAGAUCCUACCCCUUUCCCUGAGCCACAUGUUUCACACAAGUGUAGAAAAUGCCAGGGAUCCACCACAAGAUGGAGAUGGUUGGAAUUCUCGGGUGCCAA	0.563

A few entries again (block 4):
Oligonucleotide	E-score
ACTGCTTA	-0.0118
ACCATCCC	-0.0229
AAGTCCTG	-0.0172
CTTCTCTA	-0.0186
CTCATTGC	0.0136
